Experimental data from different studies.
Every numbered part comes from another study and shows a few of its results, in no order. Substitutions count along the parent as printed.

Sample 1
Target: TEF, bZIP domain (human)
Technique: DHFR protein complementation
Medium: yeast
Setting: single substitutions, most at no-binding floor
Reference: wild-type JUN-FOS pair
Direction: higher = stronger binding
Starting sequence: JUN, bZIP domain (human); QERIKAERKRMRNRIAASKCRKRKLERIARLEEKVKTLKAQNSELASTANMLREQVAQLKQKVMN; partner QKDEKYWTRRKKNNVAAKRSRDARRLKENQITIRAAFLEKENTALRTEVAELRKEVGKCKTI
| Variant | binding fitness |
| --- | --- |
| I28P | -1.4 natural log |
| E32W | -1.49 natural log |
| L38F | -1.56 natural log |
| K39Q | -1.03 natural log |
| L45S | -1.43 natural log |
| N42R | -1.49 natural log |
| T48K | -1.43 natural log |
| E32K | -1.51 natural log |
| E32A | -1.29 natural log |
| A49Q | -1.43 natural log |
| T48A | -1.32 natural log |
| M51V | -1.32 natural log |
| E32I | -1.38 natural log |
| K36W | -1.42 natural log |
| K39F | -1.56 natural log |
| E32M | -1.41 natural log |
| T37C | -1.41 natural log |
| T37H | -1.44 natural log |
| R53I | -1.48 natural log |
| Q41Y | -1.32 natural log |
| L38V | -1.5 natural log |
| T37F | -1.43 natural log |
| E32H | -1.54 natural log |
| L59T | -1.57 natural log |
| M51W | -1.45 natural log |

Sample 2
Target: RNA binding protein fox-1 homolog 2, RRM domain, GST-SBP tag (RBFOX2, Homo sapiens, UniProt O43251-10, residues 100-194)
Technique: RNA Bind-n-Seq
Form: RNA
Medium: in vitro
Concentration: 365 nM
Setting: natural RNA segment, single round, ends assumed
Reference: no-protein control
Direction: higher = stronger binding
Constant ends, left off below: GGGAGUUCUACAGUCCGACGAUC … UGGAAUUCUCGGGUGCCAA
Construct (chain): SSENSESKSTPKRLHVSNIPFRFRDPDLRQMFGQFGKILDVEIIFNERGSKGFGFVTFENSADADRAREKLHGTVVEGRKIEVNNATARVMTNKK
| Sequence | RBNS enrichment (R) |
| --- | --- |
| AUAUAAUGGGUGUGCAGCCAUAGCGAAGCUUUGAGAAGCCCCAAGCCUCAACUGUAACCUGCAGCAAACAGAGAAAUAACAUUCCUGGCAGGAAGAUACAAGUCUUUUUA | 0.349 |
| UGUUAGAAACAAAGCUAAAAUUUUAACAUGAUUAAUAAUAGAGAAGUUGGGUUUGGUUCUGUUGUUAUGAUUGUUUUGUCGUGGUGCUUGUGUUCAGUUAUAUUCUCUCU | 1.56 |
| AACUUUCUGGUUUCUGUCUCUGUGCUCUGACUUUUUGAUUUCAGGUCUAGCCCUGUGCACUUACCUCAGUACUCAGUACUUACUCAGUACUAACUCAGUACUCGUGGGAG | 0.291 |
| CAUAUGGAAGUGGACUGAAUCCUAUGUAGAAACAUACACUGAACAUUGUUAUUCAUUUUGUAAAAUACUAGUGUUUAUUUUCAUUUUUUGUAAAAUUUAAACAUCGUAUG | 0.688 |
| GGGCUUAUUCUCAGCUAACCCUGGAAGGCUCUAGGGAGGGAGUCUUUUUCCUGAUCCUUGGUAUGACUUAGGAUUCAUUUGUGCAUUCACGAUAUUAACUCUCCAUGAAU | 0.613 |
| UUGACCUUUUAGAGUCUGCAUACCCACCUGUAUAACAAGGUGGAUUGAAUGAGACAAUGCCCACGAAAUGCCCAGUUACAGUACCUGGUUCAAAACUUACUGCAUUUUAA | 0.628 |
| AGUGCUGGGAUUAAAGGCGUGCGCCACCACGUCUGGCUCCAUUUCUAAGUCUUGAACCAACUGACUCCCGAAUGCCAUUCCCGGAAGGAACCAAGUGGUGACUUUGUCCU | 0.373 |
| ACCAUGUCCCCUCUGCACCGUGACUUGGUGAUGGCUUUGUGGACAUGGCUGAAGCUGGAUGAGAUGUCCAGGAGUGCUCAUACAGCGACUGACGUAAGGACCCCCGACCG | 0.73 |
| CUAGUGUUGGUAGGUCCUAGACGUGGUUCCCUCCAGCCUCCCCAAAAUCAACCCUGGUGUUGAGAGAACGUCCUUCUGUCCAUCGUGGGUAACAGCCUUGGGGAGGGUGC | 0.253 |
| UCUGUCUGUAAACUUUGACAUCCAACCUGGAAAUCUAUUUGGUCAUGGUUAAAACAUUAUUCUCCUAUGAUAUUCAGAUUCUAGUUCUAUAUACUUCAUUAUAUAACUUU | 0.415 |
| AUCUGGUGCCAAAUGAAGAUUUUUAGGAGUGAUUACUAAUUAUCAAGGGCACAGUUGUGGUACUGUCAUUGAUAAUAAUAUAGUUUUUUUUUUUUUCCUAAUUUUGACCU | 0.845 |
| GUGGGGAGUCUGGGCUCGGUAGUAACUCUGGGAUAUUUCAAGGAUGGCUUUCUUUUUGACUGUGCUUGGGAGCAAAGUCAGAUGGGCAGCUGGGUGUGUGUUUAGAGCUC | 2.56 |

Sample 3
Target: Histone acetyltransferase KAT6A, winged helix 2, GST fusion (KAT6A, Homo sapiens, UniProt Q92794, residues 85-181)
Technique: protein binding microarray
Form: double-stranded DNA, one strand shown
Medium: in vitro
Concentration: not given
Setting: 8-mer, flanks averaged, mean of 2 arrays, mostly near background
Reference: not given
Direction: higher = stronger binding
Residues (chain): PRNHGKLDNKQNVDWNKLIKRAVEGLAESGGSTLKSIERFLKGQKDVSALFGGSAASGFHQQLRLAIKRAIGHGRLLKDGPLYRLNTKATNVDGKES
| Sequence | E-score |
| --- | --- |
| TAACTGCA | -0.0675 |
| ACTTCCAA | -0.188 |
| CTTTACCA | -0.213 |
| ACCAATAA | 0.00208 |
| AAAATTTT | 0.0882 |
| AACATCAG | 0.152 |
| GTTACCGA | -0.0217 |
| ACCTGCAT | 0.168 |
| AATCAAAC | 0.0489 |
| CCGTAACC | -0.0396 |
| AATAGCAT | 0.0546 |
| ACCGTCAG | 0.0696 |
| AACGGCGA | 0.215 |
| ACACTAAT | -0.121 |
| CCGCTTAA | 0.159 |
| ATCTAATC | 0.0434 |
| AATCCACA | -0.0954 |
| AGCTAATA | -0.021 |
| CGGGTCCC | 0.00539 |
| CTGATGAA | 0.0581 |

Sample 4
Target: RING finger protein unkempt homolog, zinc fingers 1-6, GST-SBP tag (UNK, Homo sapiens, UniProt Q9C0B0, residues 30-357)
Sequence of UniProt Q9C0B0 (30-357, looked up): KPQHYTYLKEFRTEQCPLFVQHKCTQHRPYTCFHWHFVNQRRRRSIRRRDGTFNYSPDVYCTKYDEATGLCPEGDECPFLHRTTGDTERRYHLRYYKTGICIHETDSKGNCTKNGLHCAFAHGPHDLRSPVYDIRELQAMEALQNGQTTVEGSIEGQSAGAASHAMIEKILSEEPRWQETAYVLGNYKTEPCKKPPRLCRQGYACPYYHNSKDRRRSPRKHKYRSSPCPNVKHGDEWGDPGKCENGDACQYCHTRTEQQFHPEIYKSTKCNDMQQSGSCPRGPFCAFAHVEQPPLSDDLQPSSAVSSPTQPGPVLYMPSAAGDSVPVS
Technique: RNA Bind-n-Seq
Form: RNA
Medium: in vitro
Concentration: not given
Setting: RNA with constant flanks, ends assumed
Reference: input RNA pool
Direction: higher = stronger binding
Constant ends, left off below: GGGAGUUCUACAGUCCGACGAUC … CAACAGAGGAUUGAGCAUCA
| Sequence | bound/input enrichment [ratio] |
| --- | --- |
| GAUACAAAAAGGCUUUCCCGAGAAGAGAAGGGUCGCAGCAGCUGUGGUAGGAAUUUCUGGGUCCGUGGCCUUUCGUCUACAACCAGAGCCACGGAUCUGAAGAACCUGUUUAGCAGAUAU | 0.375 |
| GUACAAGAAGAGCUUCUGAAGGGCCUGGAUAACAAGAACCCCAAGAUCAUAGUGGCCUGUACCGAAACACUGAGGAAAGCCUUAAGUGAAUUUGGUUCCAAAAUCAUCUCACUUAAGCCA | 0.409 |
| UCCGUAAACACAUUUUUGUUCUUAGUCUAUCUCUUGUACAAACGAUGUGCUUUGAAGAUGUCCGUGUAUAACAAUUGAUGUUUGUUUUCUGUUUGAUUUUAAACAGAGAAAAAAUAAAAG | 0.237 |
| GGUAGACCAGAAACCACAAAUUGACUUUUUUUCUUAGAAAAUAUUUCUAUUUGCGGUAAAUACCGUAAUAUGUAAAUAAUGUACAUCUGUUGAUUUCUGGAGUGUCUGUUAUUCAAUGAU | 0.584 |
| AUUUUCCAGUUUUAACAAAUUUAAGAACCCCAAACUAACAGGCUUAGUGAUGUAAUUGUGUUCCGCCGAGGUACACUUGUGAAUAAGGAGGGUGGGUGGGGUAGAUGUUGCUAACUGCAA | 1.11 |
| UAAAUAAGUGUUUAAAAUAUAUAUAUACACCAAGGUUCCACCCUAAGAAAAAGGCUGGACCCGUUUCAGUCCGAGCCCUUAAAUAAUCCUUCUGUUUUUUUUUACGUUGAAUCUUUCUGC | 1.16 |
| UCCAGGACUCUCAAGCUGGCAUCAUAUUAUUUGUUAUUUAAAAGACACAAUUAUUUCCGGCCGAUCUUUUUUUUUAAUGAGGUGGGGUAAGGCUGUGACUUUUGAUCUAAACAAAAGAUC | 0.164 |
| AUGCUCCUAGAAGCUGAAAAUGACAAAGAAGUUGAAAUUCUUAAAGAUAUCCGGGCACAUUUCCGUGCAAUGGUGGCCAACUUGAUUCAGUGUGUUCCAGUUCACCACCGAAGAUUUCUC | 0.193 |
| ACACGAUGUUUUUUCAAGAUUUUAGACCCUUUCUAAGUAGCAGUCCACUGGACCAAGAUAACCGAGCCAAUGAAAGGGGUCACCAGACUCACACUGACUUCUGGGGAGCAAGACCUCCAC | 0.194 |
| UGUCAGGUGGCUUAUUUGUGGAUGCCAUGAUUGAUGAUGUUCAUUUUAAGCUCUUACCUACCGUACAAGUACAUGAUGCUACUGAAUAUUUUUCCACUUGGAAACUGUGAGCUGGUUGUU | 0.174 |
| GUACUUGCUGUAGGAUUCAAGCUGUCUUUGCACUAGCUCUAAAGAAGAUUUUCUUCUGGUUUCCGAGAACUAAUUUUGUUUUAGCAUUAAACUGUUGAACUUUUUUUUGUACUUAGAAAA | 0.366 |

For quick reference, copied from above (sample 3):
| Sequence | E-score |
| --- | --- |
| CTGATGAA | 0.0581 |
| AAAATTTT | 0.0882 |
| CGGGTCCC | 0.00539 |
| CCGCTTAA | 0.159 |
| ACCGTCAG | 0.0696 |
| ACCTGCAT | 0.168 |
| GTTACCGA | -0.0217 |
| ACTTCCAA | -0.188 |
| AGCTAATA | -0.021 |
